Measurements collected from several papers.
Every numbered part comes from another study and shows a few of its results, in no order. Positions count from the first letter of the parent shown.

Study 1 — method: RNA Bind-n-Seq; molecule type: RNA; medium: in vitro; concentration: 365 nM; baseline: no-protein control; reading: higher = stronger binding
Target: RNA binding protein fox-1 homolog 2, RRM domain, GST-SBP tag (RBFOX2, Homo sapiens, UniProt O43251-10, residues 100-194)
Setting: natural RNA segment, single round, ends assumed
Shared flanks, not repeated: GGGAGUUCUACAGUCCGACGAUC … UGGAAUUCUCGGGUGCCAA
Oligonucleotide	RBNS enrichment (R)
AAAAAAAAAGAUCUGCUCUGUAGAAAGAAUUGUCUGCCAUUACAGGGUCAAGAAAAUGAAUGCGCCAAUAACAGUAAGAGCUGUGGAAGACACCCAUACCUGUAUAUACA	4.22
AAAAUUGAUAAUACCUCAUUCUGUAUUACAAUAUGAUUUUAUUUUGCCAAAGGCAAGACACCUAUAGUUGAGCUGUAUUUUGGGGGAUUGGGUGAGGAAGGACUUCUGAU	0.464
ACACCUAUUGCGUGAACAGAAUAUGCAUUAUUAAAGCAAAAAUAAAUAAAAAAUAAAAUGCAAGUGAAAACAGGGGGGGAAUUGGAUUAUUUCCUGCACUGGGUUGUGCG	0.646
GUUAAAAUUAGAGAUUUCUUUUUAUUUUCCAGUUAUAGUAAUACUAGCUGUCAGCUUAAACCCUCUGUAAUAGAACAUGGAAACAGACACAUAAAGACAUUAGCUGAAAA	1
UUGUAAACAUUAUUGCCUGAGAUAUUUGUAUAUAACUUGGGCUUUGUAGCUUUUAUUUAUUCAGAACGCAUACGGCAUGUUAAUGACUCUGAUGGUGUCCUCCUCUGGGC	5.43
UUAUAGAGACUCUAAGUCUAAAUUUUAAUUUCUUUGUAAAAACCUCAAAAGUGAGGAAAAUGGAUGUUUUAAAAUGGUAUUUUCAAUUUUUUAUAAGCAAAAUUUUGUAU	1.2
UAACAUGUUUACCUGAUUAUCUUCCAUAGAGUAACAUAAGCUGCUUUUCAAAGGUACCAUUGUGAUAAUGAGAUCAAAUUUAUAAGUUAUUAUUUUUAAUUUUCUAAAUU	0.834
UUCAAGUGACUGUGGCUCCUUUCUCUCCCUGGCCCCUAGUUUCUCCAUCUCCCAGACCAAGGGGGCGAGGGGGUUGAGUGGAGUCUUCCCUUCAAAGCAGGGAAGAAUAC	0.412

Study 2 — method: protein binding microarray; molecule type: double-stranded DNA, one strand shown; medium: in vitro; concentration: not given; baseline: not given; reading: higher = stronger binding
Target: Histone acetyltransferase KAT6A, winged helix 1, GST fusion (KAT6A, Homo sapiens, UniProt Q92794, residues 1-85)
Setting: 8-mer, flanks averaged, mean of 2 arrays, mostly near background
Residues (chain): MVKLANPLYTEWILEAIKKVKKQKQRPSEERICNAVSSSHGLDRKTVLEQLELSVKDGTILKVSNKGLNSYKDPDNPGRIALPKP
Oligonucleotide	E-score
AAAACAAC	-0.168
AATCCGAT	0.0835
CCTAGACA	-0.0856
ATGTTCTG	-0.113
AAAATAAC	-0.0891
AGCCTCCG	0.0263
GTGTTCGA	0.000525
ATCCTGAG	-0.114
ATCTCCGG	0.123
AAGGTTCC	-0.129
AGCTGCGC	0.204
AAGAGTAC	-0.097
CTTTCTGC	-0.00925
AGCTCCAA	-0.258
ACTAGTAT	-0.162
CATTAATA	-0.0783
CCGACCTA	0.0976
CCCCGAGC	0.0671
CATGATGC	0.0292
CACTATGG	-0.0765
CTTCGGTC	-0.113
CGCACAGA	0.186
AAGACGGC	0.289
AGTTCCAA	-0.277
ATCCTAGG	-0.0872

Study 3 — method: RNA Bind-n-Seq; molecule type: RNA; medium: in vitro; concentration: 1 µM; setting: whole 134-nt RNA, ends assumed; together with: 150 mM KCl; baseline: input library; reading: higher = stronger binding
Target: Ras GTPase-activating protein-binding protein 1, RRM domain (G3BP1, Homo sapiens, UniProt Q13283)
UniProt Q13283, sequence (whole entry, looked up): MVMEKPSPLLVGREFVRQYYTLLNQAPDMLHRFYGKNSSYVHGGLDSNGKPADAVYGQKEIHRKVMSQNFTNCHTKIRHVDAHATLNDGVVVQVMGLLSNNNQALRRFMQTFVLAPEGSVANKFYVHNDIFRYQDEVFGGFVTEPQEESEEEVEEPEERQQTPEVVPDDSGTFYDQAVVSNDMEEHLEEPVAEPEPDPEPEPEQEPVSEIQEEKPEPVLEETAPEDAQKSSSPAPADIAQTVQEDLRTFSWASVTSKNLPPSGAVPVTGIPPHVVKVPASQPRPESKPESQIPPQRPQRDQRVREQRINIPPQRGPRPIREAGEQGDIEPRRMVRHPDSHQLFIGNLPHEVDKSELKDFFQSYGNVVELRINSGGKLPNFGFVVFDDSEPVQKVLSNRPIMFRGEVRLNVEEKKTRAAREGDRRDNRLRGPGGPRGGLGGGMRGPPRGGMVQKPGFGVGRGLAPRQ
Shared flanks, not repeated: GGGAGUUCUACAGUCCGACGAUC … UGGAAUUCUCGGGUGUCAAGG
Oligonucleotide	log2 enrichment
GUCCUGUGCUACACAUCGUAUGUACCGAAUCAAACCCCCAAACCCCCCCAAACCCAAAAAAGUAUUAUGUUACGCCGUUCGGAUCUGCAC	-0.129
AGUCCUGUGCUACACAUCGUAUGUACCGAAUCGGGUUUUUGGGUUUGGGUUUUUGGGAAAGUAUUAUGUUACGCCGUUCGGAUCUGCACU	0.319
AAGUCCUGUGCUACACAUCGUAUGUACCGAAUCGGGUGGGAAAGGGUUUUUUUGGGAAAGUAUUAUGUUACGCCGUUCGGAUCUGCACUU	0.659
UCCUGUGCUACACAUCGUAUGUACCGAAUCGGGGUUUUUUUGGGGAGGGGUUUUUGGGGAAAGUAUUAUGUUACGCCGUUCGGAUCUGCA	0.59
UGGCCCUGGUGGCAUGCGGGGAGGAAGAGGUGGCCUCAUGGAUCGUGGUGGUCCCGGUGGAAUGUUCAGAGGUGGCCGUGGUGGAUACAG	1.11
UGUGCUACACAUCGUAUGUACCGAAUCGGGGCCCCCCCGGCCCCCCCGGGGCCCCCCCGGGGAAAGUAUUAUGUUACGCCGUUCGGAUCU	-0.586
GAGCUGGAAGCUAUCAAAGCUCGAGUCAGGGAGAUGGAGGAAGAAGCUGAGAAGCUAAAGGAGCUACAGAACGAGGUAGAGAAGCAGAUG	-0.0751
AAGUCCUGUGCUACACAUCGUAUGUACCGAAUCGGGAGGGAAAAAGGGUUUUUGGGAAAGUAUUAUGUUACGCCGUUCGGAUCUGCACUU	0.567
UUCAUUCCCAAGGGAGGCCAUGUCUGGAGAUAGACCUUGAAUUUAAUAAAUUUUAGGCACUAUACCAUUUCAGUGGAGAAAAUUGUUGGG	-0.488

Study 4 — target: ATF5, bZIP domain (human); method: DHFR protein complementation; medium: yeast; baseline: wild-type JUN-FOS pair; reading: higher = stronger binding
Setting: single substitutions, most at no-binding floor
Starting sequence: JUN, bZIP domain (human); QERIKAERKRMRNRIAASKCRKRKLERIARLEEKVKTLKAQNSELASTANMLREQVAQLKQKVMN; partner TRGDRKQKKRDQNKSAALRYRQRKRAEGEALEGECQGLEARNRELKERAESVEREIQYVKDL
Change	binding fitness
E33P	-1.48 natural log
S43R	-1.47 natural log
K36R	-1.32 natural log
K36A	-1.29 natural log
L52T	-1.54 natural log
A46I	-1.46 natural log
L31Q	-1.41 natural log
R30G	-1.33 natural log
Q55T	-1.47 natural log
A40F	-1.53 natural log
A46E	-1.44 natural log
K39H	-1.46 natural log
R30M	-1.41 natural log
N42R	-1.45 natural log
T48L	-1.53 natural log
Q55M	-1.2 natural log
E32V	-1.35 natural log
L45M	-1.48 natural log
E54F	-1.41 natural log
K34N	-1.59 natural log
N42L	-1.49 natural log
E33T	-1.54 natural log
V35G	-1.5 natural log

Excerpt of the above (study 4):
Change	binding fitness
Q55T	-1.47 natural log
K34N	-1.59 natural log
V35G	-1.5 natural log
R30M	-1.41 natural log
R30G	-1.33 natural log
K36A	-1.29 natural log
A46I	-1.46 natural log
N42L	-1.49 natural log
L52T	-1.54 natural log
E32V	-1.35 natural log
